Measured values gathered from unrelated publications.
Lines come from different studies, so protocols differ.

CN(C)C[C@@H]1CCn2cc(c3ccccc32)C2=C(C(=O)NC2=O)c2cn(c3ccccc23)CCO1  cell index (iCell Cardiomyocytes (hiPSC-derived); cellular impedance; concentration not given, 24 h; baseline: control): 100%
CCn1cc(-c2cc(Cn3ccnc3)cc3c2CCN([C@H](c2cc(OC)ccn2)C2CC2)C3=O)c(C(F)(F)F)n1  EC50 (DB; cell growth; 120 h): 20 µM
CN(C)C(=O)c1cc2cnc(Nc3ccc(N4CCNCC4)cn3)nc2n1C1CCCC1  maximum inhibition (MCF7/luciferase, wild type; cell proliferation): 79.1%
Cn1cc(-c2ccc(-c3cncc(Cl)c3N3CCC4(CCNC4=O)CC3)cc2)cn1  log2 fold change (COLO 205; gene expression, microarray, item: TCP11L2 mRNA; concentration not given, 2 h; baseline: untreated cells): 2.67
CN1CCN(c2ccc3[nH]c(-c4ccc5[nH]c(-c6ccc(C(F)(F)F)cc6)nc5c4)nc3c2)CC1  growth percent (SK-MEL-2; SRB; 10 µM, 48 h): 103%
Cc1ccc(C(=O)NC2CC2)cc1-n1ncc(C(=O)c2cccc(C#N)c2)c1N  inhibition (NLRP3 inflammasome (mouse); mouse BMDM; 10 µM): -9.93%
Nc1nc2c(ncn2[C@H]2C[C@H](O)[C@@H](COP(=O)(O)OP(=O)(O)O)O2)c(=O)[nH]1  z-scored log2 fold change (binding, equilibrium dialysis LC-MS; 5 µM, thermostabilized A2AR-BRIL construct; baseline: no-protein control, direction not given): -0.639
CCCCN1C[C@H](O)[C@@H](O)[C@@H](O)[C@H]1CO  IC50 (sample E patient fibroblasts; Gb3 level lowering, LC-MS/MS, item: Gb3 d18:1/20:0; 216 h): 56 µM
Cc1cn(-c2cc(NC(=O)c3ccc(C)c(Nc4nccc(-c5cccnc5)n4)c3)cc(C(F)(F)F)c2)cn1  ATP level (iCell Cardiomyocytes (hiPSC-derived); CellTiter-Glo; concentration not given, 24 h; baseline: control): 104%
NCCOP(=O)(O)OP(=O)(O)OC[C@H]1O[C@@H](n2ccc(N)nc2=O)[C@H](O)[C@@H]1O  z-scored log2 fold change (binding, equilibrium dialysis LC-MS; 5 µM, thermostabilized A2AR-BRIL construct; baseline: no-protein control, direction not given): 0.109
Cn1cc(-c2ccc(F)c(C(F)(F)F)c2)nc1C1CCN(c2ncnc3[nH]ncc23)CC1  relative cell number (SK-OV-3; ATP; 2D monolayer culture; 0.01 µM, 4 days; baseline: untreated): 102%
COc1cc2c(N3CCN(C(=O)Nc4ccc(OC(C)C)cc4)CC3)ncnc2cc1OCCCN1CCCCC1  ATP level (iCell Cardiomyocytes (hiPSC-derived); CellTiter-Glo; concentration not given, 24 h; baseline: control): 102%
COc1cnc2cccc(N3CCc4c(cc(Cn5ccnc5C)cc4-c4cn(C)nc4C(F)(F)F)C3=O)c2c1  EC50 (TOV21G; cell growth, inhibitor; 120 h): 1.09 µM
O=C(/C=C/C=C/C=C/C1CCCCC1)NC1=C[C@@](O)(/C=C/C=C/C=C/C(=O)NC2=C(O)CCC2=O)[C@@H]2O[C@@H]2C1=O  GI50 (NCI-N87; cell growth, CellTiter-Glo; 78 h): 12.7 µM
C=CC(=O)Nc1cc2c(Nc3ccc(F)c(Cl)c3)ncnc2cc1OCCCN1CCOCC1  beat amplitude (iCell Cardiomyocytes (hiPSC-derived); xCELLigence Cardio impedance; concentration not given, 2 h; baseline: control): 98.3%
CCn1cc(-c2cc(Cn3ccoc3=N)cc3c2CCN([C@@H](C)c2cc(OC)ccn2)C3=O)c(C(F)(F)F)n1  EC50 (HCC1195; cell growth; 120 h): 0.247 µM
c1cnc2c(c1)ccc1cccnc12  IL-1β mRNA level (differentiated THP-1; 25 µg/mL; baseline: untreated): decreased
C[C@]12O[C@H](C[C@]1(O)CO)n1c3ccccc3c3c4c(c5c6ccccc6n2c5c31)CNC4=O  ATP level (iCell Cardiomyocytes (hiPSC-derived); CellTiter-Glo; concentration not given, 24 h; baseline: control): 98.5%
CCCCc1nc(Cl)c(CO)n1Cc1ccc(-c2ccccc2-c2nn[nH]n2)cc1  log2 fold change (human PBMC; RNA-seq, item: SLC7A8 mRNA; 10 µg/mL, 24 h; baseline: untreated control): -2.1

Repeated from above:
O=C(/C=C/C=C/C=C/C1CCCCC1)NC1=C[C@@](O)(/C=C/C=C/C=C/C(=O)NC2=C(O)CCC2=O)[C@@H]2O[C@@H]2C1=O  GI50 (NCI-N87; cell growth, CellTiter-Glo; 78 h): 12.7 µM
C=CC(=O)Nc1cc2c(Nc3ccc(F)c(Cl)c3)ncnc2cc1OCCCN1CCOCC1  beat amplitude (iCell Cardiomyocytes (hiPSC-derived); xCELLigence Cardio impedance; concentration not given, 2 h; baseline: control): 98.3%
CCn1cc(-c2cc(Cn3ccoc3=N)cc3c2CCN([C@@H](C)c2cc(OC)ccn2)C3=O)c(C(F)(F)F)n1  EC50 (HCC1195; cell growth; 120 h): 0.247 µM
